Experimental data from different studies.
Each line is one published result; not all experiments were run side by side. ± gives the spread as reported.

SMILES	medium	time	pH	temperature	half-life
COc1ccc2c(c1)c(CC(=O)O[C@H]1C=C[C@@]34CCN(C)Cc5ccc(OC)c(c53)O[C@H]4C1)c(C)n2C(=O)c1ccc(Cl)cc1	human plasma 80% in PBS	–	pH 7.4	37 °C	> 12 h
CNCCNC(=O)c1cc2c([nH]c3ccccc32)c(-c2cc(Cl)c(Cl)c(Cl)c2)n1	human liver microsomes	–	–	–	1.33 h
Cc1cc(OCCCc2c(C(=O)Nc3cccc(C(=O)O)c3)[nH]c3c(-c4c(C)nn(C)c4C)c(Cl)ccc23)cc(C)c1Cl	rat liver microsomes	–	–	–	> 0.5 h
C#CCCCN1C(=O)[C@@]2(CN2[S@@+]([O-])C(C)(C)C)c2ccccc21 (some centres unmarked)	glutathione	–	–	–	0.843 h
CNCCNC(=O)c1cc2c([nH]c3c(C)cccc32)c(-c2ccc(Cl)c(Cl)c2)n1	human liver microsomes	–	–	–	3.73 h
O=C(NC1CCCCC1)Oc1ccc(O)c(-c2ccccc2)c1	80% rat plasma	–	pH 7.4	37 °C	15.8 ± 0.45 h
CC(C)(C)N1CCC(NC(=O)c2ccc(C(F)(F)F)cc2Cl)CC1	human liver microsomes	–	–	–	9.05 h
[2H]C1(C(=O)Nc2ccc3cc(C(=O)O)ccc3c2)CCN(S(=O)(=O)c2ccc(C)cc2C)CC1	rat liver microsomes	60 min	–	37 °C	0.533 h

A few entries again:
SMILES	medium	time	pH	temperature	half-life
C#CCCCN1C(=O)[C@@]2(CN2[S@@+]([O-])C(C)(C)C)c2ccccc21 (some centres unmarked)	glutathione	–	–	–	0.843 h
